Results gathered from unrelated publications.
Protocols differ between the studies behind these lines. Values joined by “and” are separate records of one study, mostly repeats; a detail may differ. ± marks the error that the study gave.
rep main protease: Replicase polyprotein 1ab, main protease (rep, Severe acute respiratory syndrome coronavirus 2, UniProt P0DTD1)

COC(=O)c1nc(C(F)(F)F)n2c1CN(C(=O)C[C@H](N)Cc1cc(F)c(F)cc1F)CC2.O=P(O)(O)O
inhibition (rep main protease; reporter gene (mKate2), inhibitor; 20 µM): -0.509%

Cn1cnc(Cn2c(=O)[nH]/c(=N\c3cc4cn(C)nc4cc3Cl)n(Cc3cc(F)c(F)cc3F)c2=O)n1
anaemia TEAE, Moderate severity (human, severe renal impairment; oral, 375 mg): 0%

O=C(CSc1nc2c(c(=O)[nH]1)CCCC2)NNC(=O)c1ccc([N+](=O)[O-])cc1
inhibition (SARS-CoV-2; virucidal activity, plaque reduction; 125 µM): 38.9 ± 2.31%

O=C[C@H](C[C@@H]1CCNC1=O)NC(=O)[C@H](CC1CCCCC1)NC(=O)c1cc2ccccc2[nH]1
inhibition (SARS-CoV-2; viral replication, NP immunofluorescence; Vero E6, 2019-nCoV-WIV04; 5 µM, together with: remdesivir 0 µM): 98.2% and 100%

Cc1nn(-c2ccc(Cl)cc2)c2c1C(c1ccc(-c3ccccc3)cc1)C(C#N)=C(N)O2 (stereo not drawn)
inhibition (SARS-CoV-2; viral replication; Vero; 10 µM): 50.3%

CC(C)(C)[C@H](NC(=O)C(F)(F)F)C(=O)N1C[C@H]2[C@@H]([C@H]1C(=O)N[C@H](C#N)C[C@@H]1CCNC1=O)C2(C)C
inhibition (SARS-CoV-2; viral replication; Vero E6; 0.5 µM): 79.2%

CC1(C)CCC(C)(C)c2cc(NC(=O)c3ccc(C(=O)O)cc3)ccc21
inhibition (SARS-CoV-2; viral replication; Vero C1008, USA-WA1/2020; 2.5 µM, reconfirmation): 48.1%

O=C(O)/C=C/c1ccc(Cn2ccnc2)cc1
inhibition (rep main protease; reporter gene (Gaussia luciferase), inhibitor; 20 µM): 0.626%

CC(C)(C)[C@H](NS(=O)(=O)C1CC1)C(=O)N1C[C@H]2[C@@H]([C@H]1C(=O)N[C@H](C#N)C[C@@H]1CCNC1=O)C2(C)C
inhibition (SARS-CoV-2; viral replication, qRT-PCR viral RNA; Vero E6; 10 µM): 80%

COc1ccc(C[C@@H]2c3cc(Oc4cc(C[C@@H]5c6cc(O)c(OC)cc6CCN5C)ccc4O)c(OC)cc3CCN2C)cc1
inhibition (SARS-CoV-2; viral cytopathic effect; Vero E6; 1.562 µM): 0%

CC(C)(O)c1ccc2c(c1)C(=CCCN1CCC(O)(c3ccc(Cl)cc3)C(C)(C)C1)c1cccnc1CO2 (stereo not drawn)
inhibition (SARS-CoV-2; viral replication; Vero E6, USA-WA1/2020; 2.5 µM): 65.4%

CC1=CCC[C@@H](C)[C@]1(C)CC[C@@]1(C)[C@@H]2CC[C@]3(C)[C@H](CC[C@]4(C)c5c(C(O)C(=O)O)ccc(O)c5C[C@@H]34)[C@@]2(C)CC[C@@H]1O (stereo partly drawn)
inhibition (SARS-CoV-2; viral replication, mNeonGreen reporter virus; 50 µM): 5.42%

O=C(/C=C/c1ccc(O)c(O)c1/C=C/c1ccc(O)c(O)c1)O[C@H](Cc1ccc(O)c(O)c1)C(=O)O
inhibition (SARS-CoV-2; viral cytopathic effect; Vero E6; 6.25 µM): 0%

CCC(=O)N[C@H](C[C@H](C)C(Cl)(Cl)Cl)C(=O)N1C(=O)C=C(OC)[C@@H]1C[C@H](C)C(Cl)(Cl)Cl
inhibition (SARS-CoV-2; viral replication, mNeonGreen reporter virus; 50 µM): 1.17%

O=C(O[C@@H]1Cc2c(O)cc(O)cc2O[C@@H]1c1cc(O)c(O)c(O)c1)c1cc(O)c(O)c(O)c1
inhibition (SARS-CoV-2; viral cytopathic effect; Vero E6; 1.562 µM): 0%

COc1cccc2c(N3CCc4ccccc4C3C)nc(Nc3ccc(F)cc3C)nc12 (stereo not drawn)
inhibition (SARS-CoV-2; viral replication; Vero C1008, USA-WA1/2020; concentration not given, 24 h): 50 to 60%

Cc1nn(-c2ccc(Cl)cc2)c2c1C(c1c(Cl)cccc1Cl)C(C#N)=C(N)O2 (stereo not drawn)
inhibition (SARS-CoV-2; viral replication; Vero; 10 µM): 46.2%

CC(CCc1ccc(C(N)=O)cc1)N(C[C@H](O)c1ccccc1)C[C@H](O)c1ccccc1 (stereo partly drawn)
inhibition (SARS-CoV-2; viral replication; Vero E6, USA-WA1/2020; 2.5 µM): 45.6%

O=C(CSc1nc2ccccc2c(=O)[nH]1)NNC(=O)c1ccccc1Br
inhibition (SARS-CoV-2; viral adsorption, plaque reduction; 31.25 µM): 16.7 ± 3.35%

CC(=O)O[C@H]1CC[C@]2(C)[C@H]3CC[C@]4(C)Oc5cc(C)oc(=O)c5C[C@H]4[C@]3(C)CC[C@H]2C1(C)C
inhibition (SARS-CoV-2; viral replication; mNeonGreen reporter; 50 µM): 95.4%

CC(C)c1oc2ccc(C#N)cc2c1-c1ccccn1
inhibition (SARS-CoV-2; viral replication; Vero E6, USA-WA1/2020; 2.5 µM): 50.9%

CC(C)=CCc1c(O)ccc(C(=O)/C=C/c2ccc(O)cc2)c1O
inhibition (SARS-CoV-2; cytopathic effect; Vero E6; 1.562 µM, first run): 0%

Cc1nn(-c2ccc(Cl)cc2)c2c1C(c1ccc(Cl)cc1Cl)C(C#N)=C(N)O2 (stereo not drawn)
inhibition (SARS-CoV-2; viral replication; Vero; 1 µM): 20.5%

Nc1ncnc2c([C@@H]3N[C@H](CO)[C@@H](O)[C@H]3O)c[nH]c12
inhibition (Junin virus; viral replication; HeLa, Romero; 25 µM): 32.6%

Cn1cnc(Cn2c(=O)[nH]/c(=N\c3cc4cn(C)nc4cc3Cl)n(Cc3cc(F)c(F)cc3F)c2=O)n1
inhibition (SARS-CoV-2; viral replication; Vero C1008, XBB.1; 0.1543 µM): 90%

Cc1nn(-c2ccc(Cl)cc2)c2c1C(c1ccc(Br)cc1)C(C#N)=C(N)O2 (stereo not drawn)
inhibition (SARS-CoV-2; viral replication; Vero; 1 µM): 10.2%

Cc1cccn2c(=O)c3cc(C(=O)Nc4ccc(N(C)C)cc4)n(C)c3nc12
inhibition (SARS-CoV-2; viral replication, qPCR; Vero C1008; 10 µM): 94.5%

C[C@@H]1CN(c2ncc(C(O)CO)cc2Cl)CCN1c1nc2c(-c3cc(F)c(F)c(F)c3)cc(C(F)(F)F)cc2[nH]1 (stereo partly drawn)
inhibition (SARS-CoV-2; viral replication; Vero E6, USA-WA1/2020; 2.5 µM): 69.5%

COc1cccc2c1CCCC2CCCN1CCN(C2CCCCC2)CC1 (stereo not drawn)
inhibition (SARS-CoV-2; viral replication; Vero E6; concentration not given): active

Oc1ccc(-c2nc(-c3ccncc3)c(-c3ccc(F)cc3)[nH]2)cc1
inhibition (SARS-CoV-2; viral replication; Vero E6, USA-WA1/2020; 2.5 µM): 54.6%

O=C(CSc1nc2c(c(=O)[nH]1)CCCC2)NNC(=O)c1ccc(Cl)cc1
inhibition (SARS-CoV-2; virucidal activity, plaque reduction; 31.25 µM): 15.6 ± 13.9%

COc1cc(C)c(/C=C/C(C)=C/C=C/C(C)=C/C(=O)O)c(C)c1C
inhibition (SARS-CoV-2; viral replication; Vero E6, USA-WA1/2020; 2.5 µM): 40%

CC[C@H](C)[C@H](NC(=O)[C@H](CC(C)C)NC(=O)[C@H](Cc1c[nH]c2ccccc12)NC(=O)[C@H](CCC(N)=O)NC(=O)[C@@H](NC(=O)[C@H](Cc1ccccc1)NC(=O)[C@H](C)NC(=O)[C@H](CCCCNC(=O)COCCOCCNC(=O)COCCOCCNC(=O)CC[C@H](NC(=O)CCCCCCCCCCCCCCCCCCC(=O)O)C(=O)O)NC(=O)[C@H](CCC(N)=O)NC(=O)[C@H](C)NC(=O)[C@@H](NC(=O)[C@H](CCCCN)NC(=O)[C@H](CC(=O)O)NC(=O)[C@H](CC(C)C)NC(=O)C(C)(C)NC(=O)[C@@H](NC(=O)[C@H](CO)NC(=O)[C@H](Cc1ccc(O)cc1)NC(=O)[C@H](CC(=O)O)NC(=O)[C@H](CO)NC(=O)[C@@H](NC(=O)[C@H](Cc1ccccc1)NC(=O)[C@@H](NC(=O)CNC(=O)[C@H](CCC(=O)O)NC(=O)C(C)(C)NC(=O)[C@@H](N)Cc1ccc(O)cc1)[C@@H](C)O)[C@@H](C)O)[C@@H](C)CC)[C@@H](C)CC)C(C)C)C(=O)N[C@@H](C)C(=O)NCC(=O)NCC(=O)N1CCC[C@H]1C(=O)N[C@@H](CO)C(=O)N[C@@H](CO)C(=O)NCC(=O)N[C@@H](C)C(=O)N1CCC[C@H]1C(=O)N1CCC[C@H]1C(=O)N1CCC[C@H]1C(=O)N[C@@H](CO)C(N)=O
serum amylase (healthy subjects, single ascending dose; 0.25 mg, baseline): 74 ± 16.3 U/L
